Assay results gathered from unrelated publications.
Compare with care: the assays were run in different laboratories. Values joined by “and” are separate records of one study, mostly repeats; a detail may differ. Numbers after ± are the reported error.
Alpha-amylase: Alpha-amylase (Bos taurus, UniProt Q3MHH8)
USP51: Ubiquitin carboxyl-terminal hydrolase 51 (USP51, Homo sapiens, UniProt Q70EK9)
UniProt Q70EK9, sequence (whole entry, looked up): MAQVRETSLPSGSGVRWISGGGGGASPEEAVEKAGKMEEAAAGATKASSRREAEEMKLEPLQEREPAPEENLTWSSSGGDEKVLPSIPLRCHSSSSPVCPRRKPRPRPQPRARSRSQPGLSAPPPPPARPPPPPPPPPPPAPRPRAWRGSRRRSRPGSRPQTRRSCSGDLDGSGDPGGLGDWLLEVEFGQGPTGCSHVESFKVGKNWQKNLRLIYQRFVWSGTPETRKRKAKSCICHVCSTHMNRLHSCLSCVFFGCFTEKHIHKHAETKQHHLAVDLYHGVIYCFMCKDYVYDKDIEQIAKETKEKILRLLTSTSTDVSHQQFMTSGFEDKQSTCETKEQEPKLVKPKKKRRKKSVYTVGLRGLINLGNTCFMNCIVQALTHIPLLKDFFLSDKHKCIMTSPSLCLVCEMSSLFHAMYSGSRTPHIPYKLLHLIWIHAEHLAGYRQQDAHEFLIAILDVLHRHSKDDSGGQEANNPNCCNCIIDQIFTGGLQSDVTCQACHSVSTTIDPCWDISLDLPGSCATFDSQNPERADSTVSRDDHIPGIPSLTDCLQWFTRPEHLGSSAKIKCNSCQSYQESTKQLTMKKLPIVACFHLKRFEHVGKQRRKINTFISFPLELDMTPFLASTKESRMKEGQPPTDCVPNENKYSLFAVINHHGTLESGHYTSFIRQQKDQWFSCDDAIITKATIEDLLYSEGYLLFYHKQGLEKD
FFAR4: Free fatty acid receptor 4 (FFAR4, Homo sapiens, UniProt Q5NUL3)
UniProt Q5NUL3, sequence (whole entry, looked up): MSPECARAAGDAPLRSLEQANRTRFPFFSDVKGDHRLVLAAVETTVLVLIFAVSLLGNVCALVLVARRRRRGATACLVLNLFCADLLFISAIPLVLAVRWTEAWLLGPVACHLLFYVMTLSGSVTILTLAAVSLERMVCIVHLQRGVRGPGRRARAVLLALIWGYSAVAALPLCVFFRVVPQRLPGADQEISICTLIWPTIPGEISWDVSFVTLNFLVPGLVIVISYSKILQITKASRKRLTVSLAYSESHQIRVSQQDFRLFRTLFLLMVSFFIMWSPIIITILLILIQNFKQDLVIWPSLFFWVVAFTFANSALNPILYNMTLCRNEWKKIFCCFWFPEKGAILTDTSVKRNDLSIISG
Trypanothione synthetase: Trypanothione synthetase (Trypanosoma brucei brucei, UniProt Q8IEX1)
ROCK1: Rho-associated protein kinase 1 (ROCK1, Homo sapiens, UniProt Q13464)
UniProt Q13464, sequence (whole entry, looked up): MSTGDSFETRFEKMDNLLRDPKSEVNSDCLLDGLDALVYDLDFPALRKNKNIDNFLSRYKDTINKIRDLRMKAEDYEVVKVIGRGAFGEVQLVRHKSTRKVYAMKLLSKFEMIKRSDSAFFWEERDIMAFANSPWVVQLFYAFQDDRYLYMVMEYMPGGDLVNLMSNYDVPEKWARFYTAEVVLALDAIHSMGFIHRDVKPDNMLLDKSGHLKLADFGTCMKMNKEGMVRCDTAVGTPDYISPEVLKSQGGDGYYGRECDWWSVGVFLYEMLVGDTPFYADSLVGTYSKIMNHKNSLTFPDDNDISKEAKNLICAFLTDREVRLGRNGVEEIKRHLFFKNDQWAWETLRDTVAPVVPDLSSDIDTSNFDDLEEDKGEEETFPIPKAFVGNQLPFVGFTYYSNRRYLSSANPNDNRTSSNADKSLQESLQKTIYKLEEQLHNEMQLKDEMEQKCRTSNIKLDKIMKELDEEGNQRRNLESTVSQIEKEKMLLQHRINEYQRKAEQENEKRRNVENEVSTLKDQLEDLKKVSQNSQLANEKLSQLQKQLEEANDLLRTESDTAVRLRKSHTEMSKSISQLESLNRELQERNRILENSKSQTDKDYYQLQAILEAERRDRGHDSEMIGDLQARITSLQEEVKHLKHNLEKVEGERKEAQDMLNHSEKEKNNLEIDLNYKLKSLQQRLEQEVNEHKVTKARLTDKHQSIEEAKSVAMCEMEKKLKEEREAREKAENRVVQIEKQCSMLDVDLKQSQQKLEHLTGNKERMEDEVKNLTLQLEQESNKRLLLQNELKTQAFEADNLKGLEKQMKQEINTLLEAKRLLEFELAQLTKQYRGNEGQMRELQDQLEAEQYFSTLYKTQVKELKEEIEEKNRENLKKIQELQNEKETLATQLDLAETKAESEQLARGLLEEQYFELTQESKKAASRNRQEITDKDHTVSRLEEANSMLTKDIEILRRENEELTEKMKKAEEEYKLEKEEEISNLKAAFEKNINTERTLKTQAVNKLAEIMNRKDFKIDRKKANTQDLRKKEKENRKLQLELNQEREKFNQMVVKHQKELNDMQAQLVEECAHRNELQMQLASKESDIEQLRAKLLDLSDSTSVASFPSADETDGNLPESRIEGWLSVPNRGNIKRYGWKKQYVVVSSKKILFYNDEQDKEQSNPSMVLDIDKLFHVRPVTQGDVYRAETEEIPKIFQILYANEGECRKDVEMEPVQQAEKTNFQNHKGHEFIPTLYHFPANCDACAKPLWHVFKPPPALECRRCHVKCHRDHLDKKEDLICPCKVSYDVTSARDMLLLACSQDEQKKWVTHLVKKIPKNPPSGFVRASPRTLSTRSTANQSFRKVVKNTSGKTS
CHRM2: Muscarinic acetylcholine receptor M2 (CHRM2, Homo sapiens, UniProt P08172)
UniProt Q8IWT6, sequence (whole entry, unmodified, looked up): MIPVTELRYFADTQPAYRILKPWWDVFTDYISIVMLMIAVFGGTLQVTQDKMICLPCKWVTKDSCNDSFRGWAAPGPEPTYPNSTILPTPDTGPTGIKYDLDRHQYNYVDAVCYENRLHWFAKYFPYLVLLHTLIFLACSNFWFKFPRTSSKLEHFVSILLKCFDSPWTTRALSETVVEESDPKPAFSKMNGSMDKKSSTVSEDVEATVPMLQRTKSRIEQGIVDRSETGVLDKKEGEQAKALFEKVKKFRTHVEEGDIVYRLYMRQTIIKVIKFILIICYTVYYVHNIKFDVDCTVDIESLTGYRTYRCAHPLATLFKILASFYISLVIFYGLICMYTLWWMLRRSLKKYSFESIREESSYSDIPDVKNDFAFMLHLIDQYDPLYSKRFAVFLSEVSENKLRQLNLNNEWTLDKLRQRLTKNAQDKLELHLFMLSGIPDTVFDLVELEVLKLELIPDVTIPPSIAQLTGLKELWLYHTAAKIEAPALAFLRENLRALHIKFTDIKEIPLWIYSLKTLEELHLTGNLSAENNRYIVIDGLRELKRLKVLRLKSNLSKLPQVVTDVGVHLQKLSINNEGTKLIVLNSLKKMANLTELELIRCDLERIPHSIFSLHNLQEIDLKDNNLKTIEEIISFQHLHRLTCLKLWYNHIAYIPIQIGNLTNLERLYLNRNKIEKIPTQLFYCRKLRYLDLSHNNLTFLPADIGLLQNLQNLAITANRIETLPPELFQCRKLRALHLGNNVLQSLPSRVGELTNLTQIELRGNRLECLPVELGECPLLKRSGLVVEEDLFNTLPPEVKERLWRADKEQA
UniProt P08172, sequence (whole entry, looked up): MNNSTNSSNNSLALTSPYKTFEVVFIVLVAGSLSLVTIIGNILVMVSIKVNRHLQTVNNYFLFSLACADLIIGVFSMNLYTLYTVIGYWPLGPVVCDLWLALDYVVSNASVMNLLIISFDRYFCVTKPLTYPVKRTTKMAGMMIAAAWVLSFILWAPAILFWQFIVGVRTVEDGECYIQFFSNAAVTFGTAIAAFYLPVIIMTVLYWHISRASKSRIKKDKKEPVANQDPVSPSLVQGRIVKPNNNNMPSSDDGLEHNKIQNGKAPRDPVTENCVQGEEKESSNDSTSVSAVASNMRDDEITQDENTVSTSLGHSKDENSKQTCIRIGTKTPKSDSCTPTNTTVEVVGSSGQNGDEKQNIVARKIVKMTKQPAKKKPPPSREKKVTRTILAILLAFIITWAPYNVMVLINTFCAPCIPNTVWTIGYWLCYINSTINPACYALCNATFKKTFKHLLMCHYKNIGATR
UniProt P61073, sequence (whole entry, looked up): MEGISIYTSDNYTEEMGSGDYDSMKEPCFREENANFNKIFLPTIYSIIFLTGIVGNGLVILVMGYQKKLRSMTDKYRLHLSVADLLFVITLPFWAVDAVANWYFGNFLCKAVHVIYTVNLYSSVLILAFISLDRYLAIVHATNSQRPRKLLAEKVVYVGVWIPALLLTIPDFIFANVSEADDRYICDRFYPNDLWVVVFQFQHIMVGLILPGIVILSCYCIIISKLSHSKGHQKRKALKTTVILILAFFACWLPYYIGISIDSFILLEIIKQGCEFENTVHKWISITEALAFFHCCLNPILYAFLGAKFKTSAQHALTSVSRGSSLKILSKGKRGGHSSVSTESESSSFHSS
UniProt Q16853, sequence (whole entry, looked up): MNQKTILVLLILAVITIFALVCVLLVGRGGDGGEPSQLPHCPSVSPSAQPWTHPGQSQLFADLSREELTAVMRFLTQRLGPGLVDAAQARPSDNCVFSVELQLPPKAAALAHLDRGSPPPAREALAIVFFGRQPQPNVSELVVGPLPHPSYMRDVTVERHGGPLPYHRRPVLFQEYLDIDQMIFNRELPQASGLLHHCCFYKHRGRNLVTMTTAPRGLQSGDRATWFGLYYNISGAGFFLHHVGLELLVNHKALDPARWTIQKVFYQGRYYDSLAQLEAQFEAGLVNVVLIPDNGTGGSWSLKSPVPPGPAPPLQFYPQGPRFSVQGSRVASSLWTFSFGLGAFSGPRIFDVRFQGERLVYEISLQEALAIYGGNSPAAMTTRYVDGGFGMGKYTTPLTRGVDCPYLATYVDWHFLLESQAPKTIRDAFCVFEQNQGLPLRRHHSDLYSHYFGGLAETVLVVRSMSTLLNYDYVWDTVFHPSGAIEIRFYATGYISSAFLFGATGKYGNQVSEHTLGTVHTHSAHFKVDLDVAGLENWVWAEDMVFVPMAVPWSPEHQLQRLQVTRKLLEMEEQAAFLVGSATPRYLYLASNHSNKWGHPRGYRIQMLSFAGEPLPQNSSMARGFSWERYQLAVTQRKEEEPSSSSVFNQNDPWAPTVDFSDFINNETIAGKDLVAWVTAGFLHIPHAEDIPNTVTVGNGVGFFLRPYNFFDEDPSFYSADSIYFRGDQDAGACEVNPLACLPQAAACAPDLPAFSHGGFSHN

`CC1=NN(c2ccc(C)cc2)C(=O)C1=NNc1ccc(S(N)(=O)=O)cc1` has an inhibition of 25.1% (Alpha-amylase; enzyme activity, inhibitor, glucose oxidase; 50 µg/mL, added: dextrin).
For `CCN(Cc1ccccc1C(F)(F)F)C(=O)C1CCN(S(=O)(=O)c2ccc3[nH]ncc3c2)CC1`, the inhibition was 5% (rat thyroid hormone receptor; radioligand binding; 10 µM).
`Oc1cc(O)c2c(c1)O[C@H](c1cc(O)c(O)c(O)c1)[C@H](O)C2` has an inhibition of 91% (USP51; inhibitor; 1 µM, 1 h preincubation, added: Ub-AMC 250 nM).
With `Cc1nn(-c2nc3c(F)cc(F)cc3s2)c(O)c1C(c1cccc(C(F)(F)F)c1)c1c(C)nn(-c2nc3c(F)cc(F)cc3s2)c1O` the inhibition was 84.3% (CGAS (Homo sapiens, UniProt Q8N884); enzyme activity, inhibitor, pyrophosphatase-coupled; 200 µM, 1.5 h, added: HT-DNA).
The tissue uptake of `CC(C)C[C@H](NC(=O)C[C@H](O)[C@H](CC(C)C)NC(=O)[C@H](Cc1c[nH]cn1)NC(=O)CNC(=O)[C@@H](NC(=O)[C@H](C)NC(=O)[C@H](Cc1c[nH]c2ccccc12)NC(=O)[C@H](CCC(N)=O)NC(=O)[C@@H](Cc1ccccc1)NC(=O)COCCOCCNC(=O)CN1CCN(CC(=O)O)CCN(CC(=O)O)CCN(CC(=O)O)CC1)C(C)C)C(N)=O` [lutetium-177 labelled] is reported as 1.1 ± 0.3 %ID/g (female BALB/c nu/nu mice, kidneys; intravenous, 50 pmol, 24 h).
Under “drug secreted with TRL”, `CC1(C)CCC(c2ccc(Cl)cc2)=C(CN2CCN(c3ccc(C(=O)NS(=O)(=O)c4ccc(N[C@H](CCN5CCOCC5)CSc5ccccc5)c(S(=O)(=O)C(F)(F)F)c4)cc3)CC2)C1` is recorded as 15.6 ± 6.7% (C2BBe1 monolayers; 50 % saturated solubility, 4 h, basolateral fractions 1-10, added: oleic acid/monoolein micelles).
`CC[C@@H]1[C@H](F)C(=O)N[C@@H]1COc1nccc2cc(C(N)=O)c(OC)cc12` has an inhibition of 8.1% (CAMKK2 (Homo sapiens, UniProt Q96RR4); ATP-site probe binding, ActivX profiling; THP-1 cell lysate; 0.2 mM, Lys2 site).
`CC1=NN(c2cccc(C)c2)C(=O)C1=NNc1ccc(S(N)(=O)=O)cc1` has an inhibition of 21.9% (Alpha-amylase; enzyme activity, inhibitor, glucose oxidase; 100 µg/mL, added: dextrin).
With `Cn1cc(-c2cnc3ccc(NC(=O)Nc4ccc(F)c(Br)c4)cc3n2)cn1` the inhibition was 1.4% (MAP3K12 (Homo sapiens, UniProt Q12852); kinase binding, KiNativ profiling, measured: Lys2 peptide; PANC-1 lysate; 10 µM).
The inhibition of `CC1=NN(c2ccccc2)C(=O)C1=NNc1ccc(S(N)(=O)=O)cc1` is reported as 22.8% (Alpha-amylase; enzyme activity, inhibitor, glucose oxidase; 50 µg/mL, added: dextrin).
The inhibition of `CCN1CCN(Cc2ccc(NC(=O)c3ccc(C)c(/C=C/c4cnc5[nH]ccc5c4OC)c3)cc2C(F)(F)F)CC1` is reported as -11.9% (ERN1 (Homo sapiens, UniProt O75460); A-375; 0.05 µM).
`NC/C(=C\F)COc1cccc(Cn2c(=S)[nH]c(=O)c3[nH]cnc32)c1` gave an inhibition of 98.9% (AOC3 (Homo sapiens, UniProt Q16853); H2O2 production, Amplex Red; 0.3704 µM, recombinant human enzyme).
`CC1=NNC(=O)C1=NNc1ccc(S(N)(=O)=O)cc1` gave an inhibition of 14.8% (Alpha-amylase; enzyme activity, inhibitor, glucose oxidase; 200 µg/mL, added: dextrin).
The inhibition of `O=c1cc(NCCCCCCCO)[nH]c(=O)[nH]1` is reported as 11 ± 2% (FFAR4; antagonist, β-arrestin recruitment; CHO cells; 10 µM).
The inhibition of `O=C(CN1C(=O)Cc2c([nH]c3ccc(Br)cc23)-c2ccc(Cl)cc21)Nc1ncco1` is reported as 12.2 ± 6.5% (Trypanothione synthetase; enzyme activity; Trypanosoma brucei; 30 µM).
`CC1=NN(c2ccc(F)cc2)C(=O)C1=NNc1ccc(S(N)(=O)=O)cc1` has an inhibition of 11.1% (Alpha-amylase; enzyme activity, inhibitor, glucose oxidase; 100 µg/mL, added: dextrin).
`O=c1cc(NCCc2cccc(Cl)c2)[nH]c(=O)[nH]1` has an inhibition of 7 ± 5% (FFAR4; antagonist, β-arrestin recruitment; CHO cells; 10 µM, added: 4 µM TUG-891).
With `[2H]c1cc(C)c(NC(=O)c2cnc(Nc3cc(N4CCCCC4)nc(C)n3)s2)c(Cl)c1` the inhibition was < 30% (WNK3 (Homo sapiens, UniProt Q9BYP7); 0.01 µM).
The inhibition of `CC(C)(C)OC(=O)NCCNC(=O)CN1C(=O)Cc2c([nH]c3ccc(Br)cc23)-c2ccc(Cl)cc21` is reported as 28.3 ± 3.2% (Trypanothione synthetase; enzyme activity, inhibitor, BIOMOL Green; 30 µM).
`COc1ccc(CCNc2cc(=O)[nH]c(=O)[nH]2)cc1OC` has an inhibition of -1 ± 8% (FFAR4; antagonist, β-arrestin recruitment; CHO cells; 10 µM).
The inhibition of `O=C(CN1C(=O)Cc2c([nH]c3ccc(Br)cc23)-c2ccc(Cl)cc21)N1CCCC1` is reported as 9.8 ± 2.8% (Trypanothione synthetase; enzyme activity, inhibitor, BIOMOL Green; 30 µM).
`COc1cc(C(=O)OCCCN2CCCN(CCCOC(=O)c3cc(OC)c(OC)c(OC)c3)CC2)cc(OC)c1OC` gave an inhibition of 16.2% and 17.8% (Equilibrative nucleoside transporter 2 (Homo sapiens, UniProt Q14542); nucleoside transport, inhibitor; MDCKII cells expressing ENT2; 2 µM, added: adenosine).
For `c1coc(-c2n[nH]cc2-c2ccnc3ccccc23)c1`, “log2 fold change” read -0.24 (HRK1 (Candida albicans); kinase binding, MIB/MS competition; Candida albicans lysate; 1 µM; reference: DMSO).
`CCCCC(CC)CNc1cc(=O)[nH]c(=O)[nH]1` (racemic) has an inhibition of -13 ± 7% (FFAR4; antagonist, β-arrestin recruitment; CHO cells; 10 µM, added: 4 µM TUG-891).
The inhibition of `COc1cc2c3c(c1OC)-c1cc4c(cc1CC3N(C)CC2c1ccccc1)OCO4` (centres unmarked) is reported as < 50% (benzodiazepine site (rat brain); binding; rat brain; concentration not given, primary screen).
For `CCCCCCCCCCNc1cc(=O)[nH]c(=O)[nH]1`, the inhibition was 32 ± 9% (FFAR4; antagonist, β-arrestin recruitment; CHO cells; 10 µM).
With `CC1=NN(c2cc(Cl)ccc2Cl)C(=O)C1=NNc1ccc(S(N)(=O)=O)cc1` the inhibition was 21.7% (Alpha-amylase; enzyme activity, inhibitor, glucose oxidase; 500 µg/mL, added: dextrin).
`C[C@]12C=CC(=O)N[C@@H]1CC[C@@H]1[C@@H]2CC[C@]2(C)[C@@H](C(=O)Nc3cc(C(F)(F)F)ccc3C(F)(F)F)CC[C@@H]12` — result for inhibition: “inhibited” (SRD5A1 (Homo sapiens, UniProt P18405); HPTLC DHT detection; HaCaT; 1 µM).
`Cc1cc(-c2ccnc3[nH]cc(F)c23)cc(F)c1[C@@]1(O)[C@H](C)CN(C(=O)CN)C[C@@H]1C` has an inhibition of 19.5% (ROCK1; ATP probe binding, KiNativ; HEK293T cell lysate; 1 µM).
`OCCCN1CC[C@@H]2C[C@H]1c1cc(-c3ccc(C(F)(F)F)cc3)ccc12` has an inhibition of < 50% (CHRM2; radioligand binding, PDSP competition binding; 10 µM).
The inhibition of `CCOC(=O)CN1C(=O)Cc2c([nH]c3ccc(Br)cc23)-c2ccc(Cl)cc21` is reported as 29.8 ± 5.5% (Trypanothione synthetase; enzyme activity, inhibitor, BIOMOL Green; 30 µM).
`CC(C)C[C@H](NC(=O)C[C@H](O)[C@H](CC(C)C)NC(=O)[C@H](Cc1c[nH]cn1)NC(=O)CNC(=O)[C@@H](NC(=O)[C@H](C)NC(=O)[C@H](Cc1c[nH]c2ccccc12)NC(=O)[C@H](CCC(N)=O)NC(=O)[C@@H](Cc1ccccc1)NC(=O)COCCOCCNC(=O)CCC(C(=O)O)N1CCN(CC(=O)O)CCN(CC(=O)O)CCN(CC(=O)O)CC1)C(C)C)C(N)=O` (some centres unmarked) [lutetium-177 labelled] gave a tissue uptake of 0.2 ± 0.09 %ID/g (BALB/c nu/nu mice, bone; intravenous, 500 pmol, 1 h, added: PA 300 µg).
For `O=c1cc(NCCCc2ccccc2)[nH]c(=O)[nH]1`, the inhibition was 14 ± 16% (FFAR4; antagonist, β-arrestin recruitment; CHO cells; 10 µM, added: 4 µM TUG-891).
For `Cn1cc(-c2ccc(-c3cncc(Cl)c3N3CCC4(CCNC4=O)CC3)cc2)cn1`, “log2 fold change” read 2.15 (COLO 205; gene expression, microarray, measured: DDR1 mRNA; concentration not given, 6 h; reference: untreated cells).
The inhibition of `CCc1ccc(OCc2nnc(SCc3nc(CC(C)C)no3)n2Cc2ccccc2)cc1` is reported as 0.06% and -0.47% (CXCR4 (Homo sapiens, UniProt P61073); arrestin recruitment, antagonist, DiscoverX arrestin; 30 µM; reference: control).
With `CC[C@@]1(CC(=O)OC)CCCN2CC[C@]3(O)C(=Nc4ccccc43)[C@@H]21` the inhibition was -17% (Neuropeptide S receptor, isoform B (NPSR1, Homo sapiens, UniProt Q6W5P4); beta-arrestin recruitment, antagonist, PathHunter chemiluminescence; 20 µM, added: agonist at EC80).
The inhibition of `Cn1cnc(Br)c1C1=CN(c2ncnc3[nH]cnc23)CCS1` is reported as 25.7% (PRKCG (Homo sapiens, UniProt P05129); enzyme activity; 0.05 µM).
The inhibition of `CC1=NNC(=S)NC(=O)C1/N=N/c1ccc(S(N)(=O)=O)cc1` (centres unmarked) is reported as 13.8% (Alpha-amylase; enzyme activity, inhibitor, glucose oxidase; 50 µg/mL, added: dextrin).
`O=C(NO)c1ccc(CN2CCCCc3ccccc32)c(F)c1` has an inhibition of -40.8% (CHRM2; radioligand binding, radioligand displacement; 10 µM).
With `CCCCC/C=C\C/C=C\CCCCCCCC(=O)O` the inhibition was 100% (USP51; inhibitor; 1 µM, 1 h preincubation, added: Ub-AMC 250 nM).
`O=c1cc(NCCc2ccc(F)cc2)[nH]c(=O)[nH]1` gave an inhibition of 11 ± 3% (FFAR4; antagonist, β-arrestin recruitment; CHO cells; 10 µM, added: 4 µM TUG-891).
With `CC(C)c1noc2ncc(C(=O)c3ccccc3O)cc12` the inhibition was 9.33% (CACNA1G (Homo sapiens, UniProt O43497); ion current, whole-cell patch-clamp; 10 µM, hCav3.1).
`CN(C(=O)n1cnc(-c2ccc[n+]([O-])c2)c1)C1CCCCC1` has an inhibition of -11.8% (CHRM2; receptor binding; 10 µM, subtype M2).
`CC1=NN(c2ccc(Cl)cc2)C(=O)C1=NNc1ccc(S(N)(=O)=O)cc1` gave an inhibition of 7.29% (Alpha-amylase; enzyme activity, inhibitor, glucose oxidase; 50 µg/mL, added: dextrin).
`Cc1cc(-c2ccnc3[nH]cc(F)c23)cc(F)c1[C@@]1(O)[C@H](C)CN(C2CCS(=O)(=O)CC2)C[C@@H]1C` has an inhibition of 1% (ROCK1; ATP probe binding, KiNativ; HEK293T cell lysate; 1 µM).
The plasma concentration of `CC(C)[C@H](NC(=O)[C@H](Cc1ccc(O)cc1)NC(=O)[C@H](Cc1ccc(O)cc1)NC(=O)[C@@H]1CCCN1C(=O)[C@H](CCC(=O)O)NC(=O)[C@H](CCC(=O)O)NC(=O)[C@H](Cc1c[nH]c2ccccc12)NC(=O)[C@@H]1CCCN1C(=O)[C@@H](NC(=O)[C@H](CCC(N)=O)NC(=O)c1ccc2c(c1)C(=O)OC21c2ccc(O)cc2Oc2cc(O)ccc21)C(C)C)C(=O)N[C@H](C(=O)N[C@@H](CCCCN)C(=O)N[C@@H](CCCCN)C(=O)N[C@@H](CO)C(=O)N[C@@H](CO)C(=O)NCC(=O)NCC(N)=O)C(C)C` is reported as 36.7 ng/mL (measured: total compound; human, plasma; intravenous infusion, 40 mg, 1 h).
For `Cc1cc(Nc2ccc(S(F)(F)(F)(F)F)cc2)n2nc(C(C)(F)F)nc2n1`, “patients with QTcB above threshold” read 11.1% (Plasmodium falciparum; 12-lead Holter ECG; human malaria patients; oral, 250 mg, QTc above 450 ms).
`Cc1ccc(C(=O)Nc2ccc3ccccc3c2)o1` has an inhibition of 6.87% (HVCN1 (Homo sapiens, UniProt Q96D96); ion current, whole-cell patch-clamp; 10 µM, hHv1).
`O=C(Nc1cccc2c(=O)cc(-c3nnn[nH]3)oc12)c1ccc(OCCCCc2ccccc2)cc1` gave an inhibition of 20.2% and 18.5% and 4.59% and 15.9% and 23.9% and -6.42% (LRRC8A/LRRC8C (Homo sapiens, UniProt Q8IWT6+Q8TDW0, L134K/L136K); ion current, whole-cell patch clamp; HCT LRRC8-/- cells; 0.3 µM, -100 mV, L134K/L136K heteromers).
`CC(C)(C)CCNc1cc(=O)[nH]c(=O)[nH]1` gave an inhibition of 18 ± 5% (FFAR4; antagonist, β-arrestin recruitment; CHO cells; 10 µM).
For `COc1ccc(F)cc1C(=O)NCc1ccc(-c2nn([C@@H](C)C(F)(F)F)c(N)c2C(N)=O)cc1`, the inhibition was 11.3% (STK39 (Homo sapiens, UniProt Q9UEW8); target engagement, competitive chemoproteomics; human PBMCs; 1 µM).
For `CC/C(=N\NC(=O)NCc1cccc(O)c1)c1ccc(O)c(C)c1O`, the inhibition was 0.6% (Proto-oncogene serine/threonine-protein kinase mos (MOS, Homo sapiens, UniProt P00540); kinase activity; 0.1 µM).
The inhibition of `CN1CCN(CCNC(=O)CN2C(=O)Cc3c([nH]c4ccc(Br)cc34)-c3ccc(Cl)cc32)CC1` is reported as 8.1 ± 6.2% (Trypanothione synthetase; enzyme activity, inhibitor, BIOMOL Green; 30 µM).
